# Assay results of several laboratories.
# Compare with care: the assays were run in different laboratories. Several values in a cell are separate wells, animals, samples, runs or records. ± gives the spread as reported.
Compound,organism,assay,test system,conditions,scale,measurement,result
COC(=O)[C@@H](CCSC)NCc1cc2ccccc2nc1SC,Pseudomonas aeruginosa,,,"32 µg/mL, with: pentamidine 100 µM",relative to: control,growth,76.9%
CC(=O)NC[C@H]1CN(c2ccc(N3CCOCC3)c(F)c2)C(=O)O1,Streptococcus pneumoniae,broth microdilution,penicillin-resistant isolates,,,MIC50,0.5 µg/mL
Cc1cc(Nc2ccc(S(F)(F)(F)(F)F)cc2)n2nc(C(C)(F)F)nc2n1,Plasmodium falciparum,microscopy,human malaria patients,"400 mg, mean",,parasite clearance half-life,4.9 h
COC(=O)[C@@H](NCc1cc2ccccc2nc1OCc1ccccc1)C(C)C,Pseudomonas aeruginosa,,,"2 µg/mL, with: pentamidine 50 µM",relative to: control,growth,101%
COc1ncc(-c2cn([C@@H]3O[C@](F)(CO)[C@@H](O)[C@H]3O)cn2)c(N)n1,Dengue virus,viral replication,"Huh-7, DENV-4",48 h,,EC50,> 100 µM
Cc1c(CN(C)C(=O)/C=C/c2cnc3c(c2)CC(NC(=O)OC(C)(C)C)C(=O)N3)oc2ccccc12 (stereo not shown),Klebsiella pneumoniae,broth microdilution,AR-0560,,,MIC,> 32 µg/mL
N=C(N)c1ccc(OCc2ccc(-c3ccccc3)cc2COc2ccc(C(=N)N)cc2)cc1,Klebsiella pneumoniae,,ATCC 13883,"concentration not given, with: rifampicin",,MIC in combination,6.25 µg/mL
Cc1cc(OC(C)C)ccc1C(=O)C(C)(C)NC(=O)c1sccc1C,Botrytis cinerea,appressorium formation,B05.10,0.1 µg/mL,,inhibition,78.7 ± 9.1%
COc1ncc(-c2cn([C@@H]3O[C@](F)(CO)[C@@H](O)[C@H]3O)cn2)c(OC)n1,Dengue virus,viral replication,"Huh-7, DENV-4",48 h,,EC50,> 100 µM
C[C@@H](O)[C@H]1C(=O)N2C(C(=O)O)=C(SCCN=CN)C[C@H]12,Escherichia coli,,"2904, female ICR mice, peritonitis, blood","dose not given, 168 h",,bacterial load,1.52 log CFU and 2.3 log CFU and 2 log CFU and 0 log CFU and 1.82 log CFU
CCNCc1cnn(-c2ccc(-n3ccc(Cl)c(Cl)c3=O)cc2)c1C(F)(F)F,amyloid beta oligomers,"dendritic length, MAP2 staining",primary rat hippocampal neurons,with: 7PA2 conditioned medium,,effective concentration,100 nM
O=C1/C(=C/c2ccc3ccccc3c2O)NC(=S)N1c1ccccc1,Fusarium solani,,,concentration not given,,inhibition zone diameter,20 ± 0.3 mm
Cc1cc(=O)oc2c(F)c(O)c(F)cc12,Phelipanche ramosa,stimulant,,1 µM,relative to: (±)-GR24,maximum germination stimulation,3%
COc1ncc(-c2cn([C@@H]3O[C@](F)(COC(=O)C(C)C)[C@@H](OC(=O)C(C)C)[C@H]3OC(=O)C(C)C)cn2)c(OC)n1,Dengue virus,viral replication,"Huh-7, DENV-2",48 h,,EC50,16 µM
CC(C)n1ncc2c(C(=O)NCC3(C)CNC3)cc(C3CC3)nc21,Enterovirus D68,cytopathic effect,"RD, US/KY/14-18953",50 nM,,cell protection,-0.141% and 0.704%
CC(C)C[C@H](NC(=O)[C@H](Cc1cccc2ccccc12)NC(=O)OCc1ccccc1)C(=O)NC(C[C@@H]1CCNC1=O)C1CO1 (stereo partly shown),Norwalk virus,"replicon RNA level, RT-qPCR","HG23 cells, GI.1 replicon",96 h,,EC50,> 10 µM
C[C@@H](CO)CCC[C@@H](C)[C@H]1CC[C@H]2[C@@H]3CC=C4C[C@@H](O)CC[C@]4(C)[C@H]3CC[C@]12C,human rotavirus,viral replication,"MA104, DS-1",,,EC90,5.85 µM
CC(C)C(=O)Nc1ncncc1-c1cn([C@@H]2O[C@](F)(COC(=O)C(C)C)[C@@H](OC(=O)C(C)C)[C@H]2OC(=O)C(C)C)cn1,Dengue virus,viral replication,"Huh-7, DENV-2",48 h,,EC50,33 µM
C[C@@H](O)[C@H]1C(=O)N2C(C(=O)O)=C(S[C@@H]3CN[C@H](C(=O)N(C)C)C3)[C@H](C)[C@H]12,Salmonella enterica Infantis,broth microdilution,clinical isolate RKI 277/14,,,MIC,≤ 0.5 µg/mL
CC(C)c1ccc(/C=C2\N=C(SCc3ccccc3)N(c3ccccc3)C2=O)cc1,Fusarium solani,,,concentration not given,,inhibition zone diameter,15 ± 0.56 mm
Cc1ccc(CCC(=O)Nc2nnc(S(N)(=O)=O)s2)cc1,Lactobacillus,,ATCC 53103,,,MIC,> 784 µM
CC(C)C(=O)OC[C@@]1(F)O[C@@H](n2cnc(-c3cnc(N)nc3)c2)[C@H](OC(=O)C(C)C)[C@@H]1OC(=O)C(C)C,Dengue virus,viral replication,"Huh-7, DENV-4",48 h,,EC50,27 µM
COc1ccc(/C=C2\NC(=S)N(c3ccccc3)C2=O)c(OC)c1,Fusarium solani,,,concentration not given,,inhibition zone diameter,15 ± 0.52 mm
CC(C)C(=O)OC[C@@]1(F)O[C@@H](n2cnc(-c3c[nH]c(=O)[nH]c3=O)c2)[C@H](OC(=O)C(C)C)[C@@H]1OC(=O)C(C)C,Dengue virus,viral replication,"Huh-7, DENV-2",48 h,,EC50,> 100 µM
COC(=O)[C@H](Cc1c[nH]c2ccccc12)NCc1cc2ccccc2nc1OC,Pseudomonas aeruginosa,,,"16 µg/mL, with: pentamidine 100 µM",relative to: control,growth,65.9%
CCCCc1ccc(CNc2nc(N(C)C)nc(N(C)C)c2/N=N/c2ccc(Cl)cc2)cc1,Ostrinia furnacalis,,,"10 µM, 6 days, larvae, artificial diet",,body length decrease,18%
Nc1ncncc1-c1cn([C@@H]2O[C@](F)(CO)[C@@H](O)[C@H]2O)cn1,Dengue virus,viral replication,"Huh-7, DENV-2",48 h,,EC50,> 100 µM
CNC(C)C1CCC(N)C(OC2C(N)CC(N)C(OC3OCC(C)(O)C(NC)C3O)C2O)O1 (stereo not shown),Salmonella enterica serovar München,broth microdilution,clinical isolate RKI-No 419/14,,,MIC,≤ 0.5 µg/mL
Nc1nc(-c2ccccc2)nc2[nH]nc(Nc3ccc(C(F)(F)F)cc3)c12,coxsackievirus B3,,"31-1-93, NMRI mice, CVB3 chronic myocarditis","oral, 100 mg/kg twice daily, day 14, dosed days 0 to 6, score scale 0 to 7",direction not given,clinical score,0
COc1ncc(-c2cn([C@@H]3O[C@](F)(CO)[C@@H](O)[C@H]3O)cn2)cn1,Dengue virus,viral replication,"Huh-7, DENV-4",48 h,,EC50,> 100 µM
CC(=O)Oc1ccc(-c2c(C(N)=O)c(N)n(N)c(=O)c2C#N)cc1,Escherichia coli,time-kill,,"1 x MIC, 90 min",,viable count,0.6 log CFU/mL

# Excerpt of the above:
Compound,organism,assay,test system,conditions,scale,measurement,result
Cc1ccc(CCC(=O)Nc2nnc(S(N)(=O)=O)s2)cc1,Lactobacillus,,ATCC 53103,,,MIC,> 784 µM
C[C@@H](CO)CCC[C@@H](C)[C@H]1CC[C@H]2[C@@H]3CC=C4C[C@@H](O)CC[C@]4(C)[C@H]3CC[C@]12C,human rotavirus,viral replication,"MA104, DS-1",,,EC90,5.85 µM
